Published values from different studies.
Lines come from different studies, so protocols differ. “And” joins repeats or separate records; there may be more than shown. ± marks the error that the study gave. ≈ marks a conversion by molar mass, not a printed value.
CYP1A2: Cytochrome P450 1A2 (CYP1A2, Homo sapiens, UniProt P05177)
cyp121: Mycocyclosin synthase (cyp121, Mycobacterium tuberculosis, UniProt P9WPP7)

The chains behind the UniProt entries cited, without tags or fusion partners. Residues count along the entry.
UniProt P05177, whole entry: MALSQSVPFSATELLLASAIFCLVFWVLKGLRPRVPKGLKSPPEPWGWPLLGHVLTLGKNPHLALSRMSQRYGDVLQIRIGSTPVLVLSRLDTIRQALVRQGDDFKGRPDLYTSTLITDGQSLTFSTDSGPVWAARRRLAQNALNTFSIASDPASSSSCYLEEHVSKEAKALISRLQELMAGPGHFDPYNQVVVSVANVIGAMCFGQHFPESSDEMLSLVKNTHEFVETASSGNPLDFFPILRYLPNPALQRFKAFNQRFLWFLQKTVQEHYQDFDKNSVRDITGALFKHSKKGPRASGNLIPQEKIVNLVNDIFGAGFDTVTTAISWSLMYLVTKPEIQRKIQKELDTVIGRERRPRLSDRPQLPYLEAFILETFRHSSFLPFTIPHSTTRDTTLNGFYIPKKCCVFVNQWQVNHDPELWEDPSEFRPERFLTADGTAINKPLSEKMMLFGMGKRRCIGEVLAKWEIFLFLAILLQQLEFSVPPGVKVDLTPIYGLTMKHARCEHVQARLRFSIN
UniProt P9WPP7, whole entry: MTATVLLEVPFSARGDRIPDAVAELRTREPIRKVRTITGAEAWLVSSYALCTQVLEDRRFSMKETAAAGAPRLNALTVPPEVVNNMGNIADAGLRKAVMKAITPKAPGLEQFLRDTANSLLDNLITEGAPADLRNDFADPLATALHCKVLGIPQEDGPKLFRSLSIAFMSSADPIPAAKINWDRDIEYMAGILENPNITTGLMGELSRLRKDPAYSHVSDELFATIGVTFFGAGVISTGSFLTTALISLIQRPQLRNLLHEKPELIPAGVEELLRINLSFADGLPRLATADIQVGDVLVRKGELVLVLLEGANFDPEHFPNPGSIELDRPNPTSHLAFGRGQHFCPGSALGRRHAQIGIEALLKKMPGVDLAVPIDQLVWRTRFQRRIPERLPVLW
UniProt P21917, whole entry: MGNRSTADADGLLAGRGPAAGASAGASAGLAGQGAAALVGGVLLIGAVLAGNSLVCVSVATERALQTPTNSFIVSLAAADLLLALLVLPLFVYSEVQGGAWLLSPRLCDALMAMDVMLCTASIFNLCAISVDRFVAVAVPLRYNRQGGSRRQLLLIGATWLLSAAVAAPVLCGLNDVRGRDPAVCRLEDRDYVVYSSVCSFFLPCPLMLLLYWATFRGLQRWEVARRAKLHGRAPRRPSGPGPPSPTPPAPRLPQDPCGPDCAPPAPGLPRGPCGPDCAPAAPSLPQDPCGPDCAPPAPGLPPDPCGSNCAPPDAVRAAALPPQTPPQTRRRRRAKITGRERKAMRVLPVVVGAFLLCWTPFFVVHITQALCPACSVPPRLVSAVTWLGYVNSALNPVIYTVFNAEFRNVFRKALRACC
UniProt P06873, 106-384 limits assumed: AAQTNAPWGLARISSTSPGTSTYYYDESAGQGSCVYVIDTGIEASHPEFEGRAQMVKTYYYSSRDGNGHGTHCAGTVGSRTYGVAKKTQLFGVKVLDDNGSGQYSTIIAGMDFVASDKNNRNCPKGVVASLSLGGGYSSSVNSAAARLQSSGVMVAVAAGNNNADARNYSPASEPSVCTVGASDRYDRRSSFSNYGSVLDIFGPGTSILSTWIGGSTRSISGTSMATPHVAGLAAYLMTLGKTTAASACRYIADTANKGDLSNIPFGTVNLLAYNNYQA
UniProt O15245, whole entry G465R: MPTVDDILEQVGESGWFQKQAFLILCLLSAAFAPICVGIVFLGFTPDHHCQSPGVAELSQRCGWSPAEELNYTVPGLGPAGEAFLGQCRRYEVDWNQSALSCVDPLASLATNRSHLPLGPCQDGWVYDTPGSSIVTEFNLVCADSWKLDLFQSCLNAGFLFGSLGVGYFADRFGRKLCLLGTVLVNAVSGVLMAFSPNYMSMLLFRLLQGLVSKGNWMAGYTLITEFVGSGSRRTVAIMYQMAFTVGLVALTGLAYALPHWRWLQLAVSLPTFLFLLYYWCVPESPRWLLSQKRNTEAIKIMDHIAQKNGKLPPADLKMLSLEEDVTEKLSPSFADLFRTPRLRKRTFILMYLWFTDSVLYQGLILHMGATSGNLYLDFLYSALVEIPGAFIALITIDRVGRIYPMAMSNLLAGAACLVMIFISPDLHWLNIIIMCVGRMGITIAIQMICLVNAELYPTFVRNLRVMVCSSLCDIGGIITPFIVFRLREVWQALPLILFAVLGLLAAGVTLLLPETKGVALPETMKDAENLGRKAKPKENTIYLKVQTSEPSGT
UniProt P35353, 24-415 limits assumed: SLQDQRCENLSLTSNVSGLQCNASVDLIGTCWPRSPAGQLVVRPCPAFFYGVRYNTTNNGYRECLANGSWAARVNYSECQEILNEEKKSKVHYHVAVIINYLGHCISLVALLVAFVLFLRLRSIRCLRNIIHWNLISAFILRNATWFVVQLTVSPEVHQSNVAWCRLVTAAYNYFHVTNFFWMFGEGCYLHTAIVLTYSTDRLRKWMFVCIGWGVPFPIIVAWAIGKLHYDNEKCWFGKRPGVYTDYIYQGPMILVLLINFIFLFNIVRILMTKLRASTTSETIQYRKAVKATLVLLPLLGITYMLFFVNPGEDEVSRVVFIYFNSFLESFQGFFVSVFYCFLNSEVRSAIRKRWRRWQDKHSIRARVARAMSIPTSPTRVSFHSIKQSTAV

| Compound | target or system | test | test system | conditions | how to read | measurement | result |
| --- | --- | --- | --- | --- | --- | --- | --- |
| O=C(NCCNCCO)c1cc2c([nH]c3ccccc32)c(-c2cc(Cl)c(Cl)c(Cl)c2)n1 |  |  |  | pH 7.4 |  | kinetic solubility | 3.05 µM (≈ 1.46 µg/mL) |
| COc1ccc(S(=O)(=O)N2CCCN(CC(=O)Nc3ccc(OC)cc3OC)CC2)cc1 | CYP1A2 | enzyme inhibition, inhibitor |  |  |  | IC50 | > 30 µM |
| [2H]c1c([2H])c(S(=O)(=O)N2CCC([2H])(C(=O)Nc3ccc4cc(C(=O)O)ccc4c3)CC2)c(C([2H])([2H])[2H])c([2H])c1C([2H])([2H])[2H] |  |  | rat liver microsomes |  |  | intrinsic clearance | < 23.1 µL/min/mg |
| [11CH3]Nc1ccc(C(=O)C2CCN(C3Cc4ccccc4CC3O)CC2)cc1 (single isomer, unassigned) |  |  | Sprague-Dawley rat, pancreas | intravenous, dose not given, 5 min |  | radioactivity uptake | 0.89 %ID/g |
| O=C(Nc1ccccc1OS(=O)(=O)c1ccc(OC(F)(F)F)cc1)c1cnccn1 | 1321-N1 astrocytoma | MTT |  | 100 µM, 24 h | baseline: untreated | viability | 64.2 ± 0.75% |
| O=C(NC1CCN(c2ncnc3[nH]cnc23)CC1)c1cccc(S(=O)(=O)Nc2ccc(Cl)cc2)c1 | A549-ACE2 |  |  | 0.03048 µM |  | viability | 103% |
| CCc1nc(N)nc(N)c1C#CCc1cc(-c2ccncc2)ccc1OC | Klebsiella pneumoniae | Alamar Blue broth | ATCC 10031 |  |  | MIC | 1.25 µg/mL (≈ 3.48 µM) |
| CCC(CC)(c1ccc(-c2ccc(F)cc2)cc1)n1ccnc1 | cyp121 | binding |  |  |  | Kd | 2.5 ± 0.57 µM |
| Cc1ccc(S(=O)(=O)Nc2cccc(C(=O)NC3CCN(c4ncnc5[nH]cnc45)CC3)c2)cc1Cl | A549-ACE2 |  |  | 22.22 µM |  | viability | 92.9% |
| CCC(c1ccc(-c2ccc(NC(C)=O)cc2)cc1)n1ccnc1 (centres unmarked) | cyp121 | binding |  |  |  | Kd | 2 ± 0.44 µM |
| NCCNC(=O)c1cc2c([nH]c3ccccc32)c(-c2ccc(C(F)(F)F)cc2)n1 |  |  |  | pH 7.4 |  | kinetic solubility | 41.6 µM (≈ 16.6 µg/mL) |
| O=C(NC1CCN(c2ncnc3[nH]cnc23)CC1)c1cccc(NS(=O)(=O)c2ccc(Cl)cc2)c1 | A549-ACE2 |  |  | 0.01016 µM |  | viability | 100% |
| O=C(NC1CCCCC1)Oc1ccc(O)c(-c2ccccc2)c1 |  |  | mouse, brain | intraperitoneal, 1 mg/kg | baseline: cpd over URB597 | Cmax ratio | 2 fold |
| COc1ccc(CN[C@@H]2CO[C@H](C(c3ccccc3)c3ccccc3)C[C@H]2O)cc1 | DRD4 (Homo sapiens, UniProt P21917) | radioligand binding |  | 10 µM, with: [3H]N-methylspiperone |  | inhibition | 3.1% |
| CCn1ccc(-c2cc(-c3cnn(C)c3)cc([C@@H](C)NC(=O)c3cc(OCCN(C)C)ccc3C)c2)n1 | Vero-AT |  |  | 64 µM |  | cytotoxicity | toxic |
| CN(C(=O)Cc1ccc(Cl)cc1Cl)[C@@H]1CCCC[C@H]1N1CCCC1 |  |  | mouse liver microsomes | 0.5 µM, with: NADPH |  | intrinsic clearance | 4.6 mL/min/g |

| Compound | target or system | test | test system | conditions | how to read | measurement | result |
| --- | --- | --- | --- | --- | --- | --- | --- |
| COCn1cc(-c2cc([C@@H](C)NC(=O)c3cc(OCCN(C)C)ccc3C)c3ccccc3n2)cn1 | Vero E6 cells |  |  | 15.62 µM |  | viability | 101% and 105% |
| CC1(C)CC[C@]2(C(=O)O)CC[C@]3(C)C(=CC[C@@H]4[C@@]5(C)CC[C@H](OC(=O)NCc6ccccc6)C(C)(C)[C@@H]5CC[C@]43C)[C@@H]2C1 |  |  | C57BL/6 mice, plasma | intraperitoneal, 85 µmol/kg |  | Cmax | 16.6 µM |
| CC[C@H](C)[C@H](NC(=O)[C@H](CO)NC(=O)[C@H](CC(=O)O)NC(=O)[C@H](CC(C)C)NC(=O)[C@@H](NC(=O)[C@H](CCCCN)NC(=O)[C@H](CC(N)=O)NC(=O)[C@H](CO)NC(=O)[C@H](CCCNC(=N)N)NC(=O)[C@H](CCCNC(=N)N)NC(=O)[C@@H](NC(=O)[C@H](Cc1c[nH]c2ccccc12)NC(=O)[C@H](CCC(=O)O)NC(=O)[C@H](CCCCN)NC(=O)[C@H](CO)NC(=O)[C@H](CCC(=O)O)NC(=O)[C@H](CCC(=O)O)NC(=O)[C@H](CC(C)C)NC(=O)[C@H](CC(=O)O)NC(=O)[C@H](CO)NC(=O)[C@H](CCCCN)NC(=O)[C@@H](NC(=O)[C@H](CCCCN)NC(=O)[C@H](CC(N)=O)NC(=O)[C@H](CC(C)C)NC(=O)[C@@H](NC(=O)[C@@H](NC(=O)[C@H](CO)NC(=O)[C@@H](NC(=O)[C@H](CC(=O)O)NC(=O)[C@@H](NC(=O)[C@@H]1CCCN1C(=O)[C@H](CC(=O)O)NC(=O)[C@H](CC(C)C)NC(=O)[C@H](C)NC(=O)[C@@H](NC(C)=O)C(C)C)[C@@H](C)CC)[C@@H](C)CC)[C@@H](C)CC)C(C)C)[C@@H](C)CC)[C@@H](C)CC)[C@@H](C)CC)C(=O)NCC(=O)N[C@@H](CO)C(=O)NCC(=O)N[C@@H](CO)C(=O)NCC(=O)NCCOCCOCCOCCOCCC(=O)N[C@@H](CSCC(=O)Oc1c(C)c(C)c2c(c1C)CC[C@@](C)(CCC[C@H](C)CCC[C@H](C)CCCC(C)C)O2)C(N)=O | Proteinase K (PROK, Engyodontium album, UniProt P06873) | proteolytic degradation, substrate |  | 30 µM, pH 7.5, 37 °C, with: 10 µg/mL proteinase K |  | half-life | 13 min |
| NC[C@@H](NC[C@@H]1CCCN1C[C@@H](CO)NC[C@@H](NCCc1ccc(Cl)c(Cl)c1)c1ccccc1)c1ccccc1 | Klebsiella pneumoniae | bacterial growth |  | 24 µM, fold shift of IC50, with: amikacin |  | potentiation of amikacin | 1.7 fold |
| Cc1ccc2nc(-c3ccc4nc(-c5ccc(NC(=O)c6cccc(Cl)c6)cc5)sc4c3)sc2c1S(=O)(=O)O |  |  | mock assay matrix | pH 6.5 |  | solubility | 17.8 µg/mL (≈ 30.1 µM) |
| NC[C@@H](NC[C@@H]1CCCN1C[C@@H](CO)NC[C@@H](NCCc1ccc(-c2ccccc2)cc1)c1ccccc1)c1ccccc1 | Klebsiella pneumoniae | bacterial growth |  | compound alone |  | IC90 | > 24 µM |
| Cc1ccccc1S(=O)(=O)Nc1cccc(C(=O)NC2CCN(c3ncnc4[nH]cnc34)CC2)c1 | A549-ACE2 |  |  | 0.2743 µM |  | viability | 104% |
| CC(C)C[C@@H](NC(=O)[C@H](NC(=O)[C@H]1CCCN1)[C@H](C)O)C(=O)N[C@H](Cc1c[nH]cn1)C(=O)N[C@@H](C(=O)N[C@H](Cc1c[nH]cn1)C(=O)N[C@H](CC(N)=O)C(=O)N[C@H](CCCNC(=N)N)C(=O)N[C@H](CCCNC(=N)N)C(=O)N[C@H](CCCNC(=N)N)C(=O)N[C@H](CCCNC(=N)N)C(=O)N[C@H](CCCNC(=N)N)C(N)=O)[C@H](C)O |  |  | healthy male humans | 160 320 mg daily |  | subjects with non-serious adverse events | 6.7% |
| C[C@H](Cc1ccc(O)cc1)NC[C@H](O)c1cc(O)cc(O)c1 | SLC22A1 (Homo sapiens, UniProt O15245, G465R) | binding, frontal displacement chromatography | immobilized SLC22A1 column | with: [3H]MPP+ marker |  | Kd | 13.4 µM |
| COc1ccc(NC(=O)CN2CCCN(S(=O)(=O)c3ccc(C)cc3)CC2)c(OC)c1 | CYP1A2 | enzyme inhibition, inhibitor |  |  |  | IC50 | 16.3 µM |
| O=C(NC1CCN(c2ncnc3[nH]cnc23)CC1)c1cccc(NS(=O)(=O)c2ccc([N+](=O)[O-])cc2)c1 | A549-ACE2 |  |  | 2.469 µM |  | viability | 103% |
| Cc1ccc(NC(=O)C2CC3CCC2C3)c(C)c1 (centres unmarked) | CYP1A2 | enzyme activity, inhibitor |  |  |  | IC50 | 10.5 µM |
| COc1cccc2c(N3CCC(CCP(=O)(O)O)CC3)ncnc12 |  |  | mouse, serum | subcutaneous, 300 mg/kg daily, 24 h after dose, dosed for 6 days |  | mean trough concentration | ~100 nM |
| NCCNCCSc1ccccc1 |  |  | n-octanol/phosphate buffer | 10 µg/mL, pH 7.4 |  | logP | -0.6 ± 0.08 |
| COc1ccc(S(=O)(=O)Nc2cccc(C(=O)NC3CCN(c4ncnc5[nH]cnc45)CC3)c2)cc1 | A549-ACE2 |  |  | 200 µM |  | viability | 83.5% |
| COCCN(CCOC)c1nc(C)nc2c(-c3c(OC)cc([76Br])cc3OC)c(C)nn12 | Corticotropin-releasing factor receptor 1 (Rattus norvegicus, UniProt P35353) |  | rat, frontal cortex | intravenous, 60 min |  | concentration | 0.00023 µM |

Excerpt of the above:
| Compound | target or system | test | test system | conditions | how to read | measurement | result |
| --- | --- | --- | --- | --- | --- | --- | --- |
| CC[C@H](C)[C@H](NC(=O)[C@H](CO)NC(=O)[C@H](CC(=O)O)NC(=O)[C@H](CC(C)C)NC(=O)[C@@H](NC(=O)[C@H](CCCCN)NC(=O)[C@H](CC(N)=O)NC(=O)[C@H](CO)NC(=O)[C@H](CCCNC(=N)N)NC(=O)[C@H](CCCNC(=N)N)NC(=O)[C@@H](NC(=O)[C@H](Cc1c[nH]c2ccccc12)NC(=O)[C@H](CCC(=O)O)NC(=O)[C@H](CCCCN)NC(=O)[C@H](CO)NC(=O)[C@H](CCC(=O)O)NC(=O)[C@H](CCC(=O)O)NC(=O)[C@H](CC(C)C)NC(=O)[C@H](CC(=O)O)NC(=O)[C@H](CO)NC(=O)[C@H](CCCCN)NC(=O)[C@@H](NC(=O)[C@H](CCCCN)NC(=O)[C@H](CC(N)=O)NC(=O)[C@H](CC(C)C)NC(=O)[C@@H](NC(=O)[C@@H](NC(=O)[C@H](CO)NC(=O)[C@@H](NC(=O)[C@H](CC(=O)O)NC(=O)[C@@H](NC(=O)[C@@H]1CCCN1C(=O)[C@H](CC(=O)O)NC(=O)[C@H](CC(C)C)NC(=O)[C@H](C)NC(=O)[C@@H](NC(C)=O)C(C)C)[C@@H](C)CC)[C@@H](C)CC)[C@@H](C)CC)C(C)C)[C@@H](C)CC)[C@@H](C)CC)[C@@H](C)CC)C(=O)NCC(=O)N[C@@H](CO)C(=O)NCC(=O)N[C@@H](CO)C(=O)NCC(=O)NCCOCCOCCOCCOCCC(=O)N[C@@H](CSCC(=O)Oc1c(C)c(C)c2c(c1C)CC[C@@](C)(CCC[C@H](C)CCC[C@H](C)CCCC(C)C)O2)C(N)=O | Proteinase K (PROK, Engyodontium album, UniProt P06873) | proteolytic degradation, substrate |  | 30 µM, pH 7.5, 37 °C, with: 10 µg/mL proteinase K |  | half-life | 13 min |
| CCc1nc(N)nc(N)c1C#CCc1cc(-c2ccncc2)ccc1OC | Klebsiella pneumoniae | Alamar Blue broth | ATCC 10031 |  |  | MIC | 1.25 µg/mL (≈ 3.48 µM) |
| O=C(Nc1ccccc1OS(=O)(=O)c1ccc(OC(F)(F)F)cc1)c1cnccn1 | 1321-N1 astrocytoma | MTT |  | 100 µM, 24 h | baseline: untreated | viability | 64.2 ± 0.75% |
| COc1cccc2c(N3CCC(CCP(=O)(O)O)CC3)ncnc12 |  |  | mouse, serum | subcutaneous, 300 mg/kg daily, 24 h after dose, dosed for 6 days |  | mean trough concentration | ~100 nM |
| O=C(NC1CCN(c2ncnc3[nH]cnc23)CC1)c1cccc(NS(=O)(=O)c2ccc(Cl)cc2)c1 | A549-ACE2 |  |  | 0.01016 µM |  | viability | 100% |
